{"data": "Assay results from different studies", "note": "Numbered parts are unrelated; each lists some results of a single study. Changes are numbered by the printed parent chain."}
{"data": "Series 1", "target": "UBE2E3 UBC core domain (UniProt Q969T4)", "technique": "yeast two-hybrid", "medium": "yeast", "setting": "mostly zero background", "baseline": "not given", "reading": "higher = stronger interaction", "B1": "MKRN3 RING domain (UniProt Q13064); chain FAVQRGMDKVCGICMEVVYEKANPNDRRFGILSNCNHSFCIRCIRRWRSARQFENRIVKSCPQCRVTSELVIPSE", "B2": "HLTF RING domain (UniProt Q14527); chain LILSSGSDEECAICLDSLTVPVITHCAHVFCKPCICQVIQNEQPHAKCPLCRNDIHEDNLLE", "B3": "RUFY1 RING domain (UniProt Q96T51); chain QALKGHAWLKDDEATHCRQCEKEFSISRRKHHCRNCGHIFCNTCSSNELALPSYPKPVRVCDSCHTLLLQRCSSTAS", "B4": "ARIH2 RING domain (UniProt O95376); chain HVPTSHPPHHCAVCMQFVRKENLLSLACQHQFCRSCWEQHCSVLVKDGVGVGVSCMAQDCPLRTPEDFVF", "B5": "RNF186 RING domain (UniProt Q9NXI6); chain HSGSTECDLECLVCREPYSCPRLPKLLACQHAFCAICLKLLLCVQDNTWSITCPLCRKVTAVPGGLI", "B6": "RNF6 RING domain (UniProt Q9Y252); chain NSIDSELGKICSVCISDYVTGNKLRQLPCMHEFHIHCIDRWLSENCTCPICRQPVLGSNIAN", "B7": "VPS8 RING domain (UniProt Q8N3P4); chain TRGLNPKQDYCSICLQQYKRRQEMADEIIVFSCGHLYHSFCLQNKECTVEFEGQTRWTCYKCSSSNKVGKLSE", "chain of UniProt Q969T4 (whole entry, looked up)": "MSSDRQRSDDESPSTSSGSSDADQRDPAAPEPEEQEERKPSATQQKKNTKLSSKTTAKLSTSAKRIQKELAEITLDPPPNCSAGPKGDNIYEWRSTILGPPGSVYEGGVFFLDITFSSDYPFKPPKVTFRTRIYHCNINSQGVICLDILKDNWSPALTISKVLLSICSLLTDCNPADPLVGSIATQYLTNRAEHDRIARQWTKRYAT"}
{"Molecule": "B1 (MKRN3 RING domain)", "lacZ reporter activity": 0}
{"Molecule": "B2 (HLTF RING domain)", "lacZ reporter activity": 0}
{"Molecule": "ASPKIFQKTKCSICNSALELPSVHFLCGHSFHQHCFESYSESDADCPTCLPENRKVMDMI (VPS11 RING domain (UniProt Q9H270))", "lacZ reporter activity": 0}
{"Molecule": "B3 (RUFY1 RING domain)", "lacZ reporter activity": 0}
{"Molecule": "FDPPLESKYECPICLMALREAVQTPCGHRFCKACIIKSIRDAGHKCPVDNEILLENQLFP (TRAF6 RING domain (UniProt Q9Y4K3))", "lacZ reporter activity": 0}
{"Molecule": "B4 (ARIH2 RING domain)", "lacZ reporter activity": 0}
{"Molecule": "LVKDFNPYITCYICKGYLIKPTTVTECLHTFCKTCIVQHFEDSNDCPRCGNQVHETNPLE (PCGF5 RING domain (UniProt Q86SE9))", "lacZ reporter activity": 0}
{"Molecule": "B5 (RNF186 RING domain)", "lacZ reporter activity": 0}
{"Molecule": "EIKEYKARLTCPCCNTRKKDAVLTKCFHVFCFECVRGRYEARQRKCPKCNAAFGAHDFHR (RNF40 RING domain (UniProt O75150))", "lacZ reporter activity": 0}
{"Molecule": "B6 (RNF6 RING domain)", "lacZ reporter activity": 0}
{"Molecule": "B7 (VPS8 RING domain)", "lacZ reporter activity": 0}
{"data": "Series 2", "target": "Histone acetyltransferase KAT6A, winged helix 1, GST fusion (KAT6A, Homo sapiens, UniProt Q92794, residues 1-85)", "technique": "protein binding microarray", "form": "double-stranded DNA, one strand shown", "medium": "in vitro", "concentration": "not given", "setting": "8-mer, flanks averaged, mean of 2 arrays, mostly near background", "baseline": "not given", "reading": "higher = stronger binding", "Target sequence (chain)": "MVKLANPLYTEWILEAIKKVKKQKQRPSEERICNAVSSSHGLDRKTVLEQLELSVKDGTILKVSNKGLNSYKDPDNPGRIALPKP"}
{"Strand": "ACCTGTGA", "E-score": -0.194}
{"Strand": "AGCGTAGG", "E-score": 0.119}
{"Strand": "AAAACTCG", "E-score": -0.104}
{"Strand": "CGCTCGAA", "E-score": -0.0138}
{"Strand": "ACCGCCGG", "E-score": 0.472}
{"Strand": "CTAACGTA", "E-score": 0.0252}
{"Strand": "AAGACCGC", "E-score": 0.217}
{"Strand": "CGGGCCTC", "E-score": 0.243}
{"Strand": "GCCCCTCC", "E-score": 0.0574}
{"Strand": "CGAACCGC", "E-score": 0.332}
{"Strand": "AGCGCATG", "E-score": 0.165}
{"Strand": "GGTATGAA", "E-score": -0.0471}
{"Strand": "AATACTAT", "E-score": -0.0577}
{"Strand": "CGGTGTGC", "E-score": 0.186}
{"Strand": "CGTTGACA", "E-score": -0.119}
{"Strand": "TCAATCCA", "E-score": -0.269}
{"data": "Series 3", "target": "FOSB, bZIP domain (human)", "technique": "DHFR protein complementation", "medium": "yeast", "setting": "single substitutions, most at no-binding floor", "baseline": "wild-type JUN-FOS pair", "reading": "higher = stronger binding", "starting sequence": "JUN, bZIP domain (human); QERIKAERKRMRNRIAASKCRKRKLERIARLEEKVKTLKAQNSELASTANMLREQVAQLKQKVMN"}
{"Variant": "L45N", "binding fitness [natural log]": -1.34}
{"Variant": "L45C", "binding fitness [natural log]": -1.46}
{"Variant": "L52T", "binding fitness [natural log]": -1.48}
{"Variant": "L45W", "binding fitness [natural log]": -1.22}
{"Variant": "A49N", "binding fitness [natural log]": -1.32}
{"Variant": "L52P", "binding fitness [natural log]": -1.28}
{"Variant": "V56A", "binding fitness [natural log]": -1.22}
{"Variant": "L45V", "binding fitness [natural log]": -1.21}
{"Variant": "L38N", "binding fitness [natural log]": -1.33}
{"Variant": "Q55P", "binding fitness [natural log]": -1.41}
{"data": "Series 4", "target": "Interferon regulatory factor 5, full length, phosphomimetic (IRF5, Homo sapiens, UniProt Q13568-2, residues 1-514, K96S/S451D/S453D/S456D/S462D)", "technique": "protein-binding microarray", "form": "double-stranded DNA, one strand shown", "medium": "in vitro", "concentration": "250 nM", "setting": "60-bp whole probe", "with": "salmon DNA 0.4 mg/ml", "baseline": "random background probes", "reading": "higher = stronger binding", "shared flanks, not repeated": "GCCTAGCAC … GTCTTGATTCGCTTGACGCTGCTG"}
{"Strand": "GAATGTTTTTCATTGTTTTTGTGCTAG", "log fluorescence": "1.75 z-score"}
{"Strand": "TTCGGTTTCCTTCTCCTTTAGTGCTAG", "log fluorescence": "2.26 z-score"}
{"Strand": "TTAGGTATCAGTATCGGTTAGTGCTAG", "log fluorescence": "8.23 z-score"}
{"Strand": "TCACGGATGATCTCTCTGACTGTGCTA", "log fluorescence": "-0.128 z-score"}
{"Strand": "TTAGGTCTCCTTAGCCTTTAGTGCTAG", "log fluorescence": "-0.322 z-score"}
{"Strand": "GACGATTTCAGTTTAGAGACGTGCTAG", "log fluorescence": "1.66 z-score"}
{"Strand": "TAAGGACTGCTTCTCCTTTAGTGCTAG", "log fluorescence": "-0.102 z-score"}
{"Strand": "TTAGGTTCGCTTTTCCTTTAGTGCTAG", "log fluorescence": "0.777 z-score"}
{"Strand": "TCTTTTTGCTTTCTTTTATGGTGCTAG", "log fluorescence": "2.99 z-score"}
{"Strand": "TTAGAGTTCAGTATCGATTAGTGCTAG", "log fluorescence": "7.23 z-score"}
{"Strand": "TCAATGTTCCTTATTTAACTGTGCTAG", "log fluorescence": "0.642 z-score"}
{"Strand": "TCAGAATTACCTCTGGAACTGTGCTAG", "log fluorescence": "-0.512 z-score"}
{"Strand": "GACGGGATCGGGACTGGGGACGTGCTA", "log fluorescence": "-0.514 z-score"}
{"Strand": "GACGCTTTCAGTTTCGAGACGTGCTAG", "log fluorescence": "8.7 z-score"}
{"Strand": "TTTTTTTTTTTTTTACTTCGGTGCTAG", "log fluorescence": "1.47 z-score"}
{"Strand": "GACGGACTGCTTCTCCCGACGTGCTAG", "log fluorescence": "-0.645 z-score"}
{"Strand": "TCATTATTTACTCTCTAACTGTGCTAG", "log fluorescence": "0.865 z-score"}
{"Strand": "GACGGTATCGATATCGGGACGTGCTAG", "log fluorescence": "6.67 z-score"}
{"Strand": "GACGGACTGCTTCTCCTGAGGTGCTAG", "log fluorescence": "-0.458 z-score"}
{"note": "Excerpt of the above (series 3):"}
{"Variant": "L52T", "binding fitness [natural log]": -1.48}
{"Variant": "L45W", "binding fitness [natural log]": -1.22}
{"Variant": "A49N", "binding fitness [natural log]": -1.32}
{"Variant": "L52P", "binding fitness [natural log]": -1.28}
{"Variant": "V56A", "binding fitness [natural log]": -1.22}
{"Variant": "L45V", "binding fitness [natural log]": -1.21}
{"Variant": "L38N", "binding fitness [natural log]": -1.33}
